Experimental data of several laboratories.
Numbered parts are unrelated; each lists some results of a single study. Changes are numbered by the printed parent chain.
Sequence of UniProt Q8L7G0 (whole entry, looked up): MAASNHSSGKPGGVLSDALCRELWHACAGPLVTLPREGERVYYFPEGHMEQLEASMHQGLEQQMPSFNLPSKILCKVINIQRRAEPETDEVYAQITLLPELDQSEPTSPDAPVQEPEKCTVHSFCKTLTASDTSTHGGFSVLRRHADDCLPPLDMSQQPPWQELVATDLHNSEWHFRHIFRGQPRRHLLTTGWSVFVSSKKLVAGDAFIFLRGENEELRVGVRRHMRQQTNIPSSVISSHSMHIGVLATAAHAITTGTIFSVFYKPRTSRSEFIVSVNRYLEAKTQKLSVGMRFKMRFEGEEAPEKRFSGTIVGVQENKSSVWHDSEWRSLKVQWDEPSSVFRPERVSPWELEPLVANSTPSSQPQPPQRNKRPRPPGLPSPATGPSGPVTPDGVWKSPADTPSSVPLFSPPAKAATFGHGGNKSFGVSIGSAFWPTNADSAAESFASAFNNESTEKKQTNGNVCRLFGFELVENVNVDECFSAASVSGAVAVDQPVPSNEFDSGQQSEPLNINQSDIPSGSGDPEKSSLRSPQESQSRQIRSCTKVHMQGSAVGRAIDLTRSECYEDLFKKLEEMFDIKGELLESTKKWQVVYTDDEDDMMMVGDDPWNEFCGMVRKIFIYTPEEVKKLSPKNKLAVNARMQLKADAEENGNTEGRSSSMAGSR
Sequence of UniProt Q8RYC6 (whole entry, looked up): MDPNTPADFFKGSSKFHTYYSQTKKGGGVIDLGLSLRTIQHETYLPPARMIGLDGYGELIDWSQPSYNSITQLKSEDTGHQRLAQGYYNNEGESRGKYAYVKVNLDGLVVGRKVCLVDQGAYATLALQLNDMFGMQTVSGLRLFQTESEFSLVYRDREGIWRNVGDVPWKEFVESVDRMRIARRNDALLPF
Sequence of UniProt Q9FGV1 (whole entry, looked up): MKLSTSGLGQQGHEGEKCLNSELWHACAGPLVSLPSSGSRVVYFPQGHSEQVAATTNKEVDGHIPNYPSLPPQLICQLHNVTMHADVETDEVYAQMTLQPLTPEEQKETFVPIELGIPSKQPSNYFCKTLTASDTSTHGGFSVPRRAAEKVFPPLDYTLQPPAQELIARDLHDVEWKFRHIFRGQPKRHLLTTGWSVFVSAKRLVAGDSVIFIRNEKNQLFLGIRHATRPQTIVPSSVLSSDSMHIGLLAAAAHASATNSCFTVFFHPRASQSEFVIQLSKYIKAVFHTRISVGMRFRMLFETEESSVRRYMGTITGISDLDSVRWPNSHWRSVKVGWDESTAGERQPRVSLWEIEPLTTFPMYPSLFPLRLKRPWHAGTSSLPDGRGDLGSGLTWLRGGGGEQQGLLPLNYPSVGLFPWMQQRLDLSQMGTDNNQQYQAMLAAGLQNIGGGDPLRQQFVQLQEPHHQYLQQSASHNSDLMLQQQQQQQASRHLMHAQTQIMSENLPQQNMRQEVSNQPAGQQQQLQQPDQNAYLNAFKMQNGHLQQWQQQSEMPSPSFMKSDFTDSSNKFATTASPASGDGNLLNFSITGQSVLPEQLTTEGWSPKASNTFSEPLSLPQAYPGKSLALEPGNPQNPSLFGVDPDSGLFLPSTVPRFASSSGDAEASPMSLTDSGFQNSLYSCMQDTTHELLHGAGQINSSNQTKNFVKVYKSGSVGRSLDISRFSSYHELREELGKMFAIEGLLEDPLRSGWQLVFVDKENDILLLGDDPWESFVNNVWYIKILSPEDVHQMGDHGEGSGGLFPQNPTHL
Sequence of UniProt P93022 (whole entry, looked up): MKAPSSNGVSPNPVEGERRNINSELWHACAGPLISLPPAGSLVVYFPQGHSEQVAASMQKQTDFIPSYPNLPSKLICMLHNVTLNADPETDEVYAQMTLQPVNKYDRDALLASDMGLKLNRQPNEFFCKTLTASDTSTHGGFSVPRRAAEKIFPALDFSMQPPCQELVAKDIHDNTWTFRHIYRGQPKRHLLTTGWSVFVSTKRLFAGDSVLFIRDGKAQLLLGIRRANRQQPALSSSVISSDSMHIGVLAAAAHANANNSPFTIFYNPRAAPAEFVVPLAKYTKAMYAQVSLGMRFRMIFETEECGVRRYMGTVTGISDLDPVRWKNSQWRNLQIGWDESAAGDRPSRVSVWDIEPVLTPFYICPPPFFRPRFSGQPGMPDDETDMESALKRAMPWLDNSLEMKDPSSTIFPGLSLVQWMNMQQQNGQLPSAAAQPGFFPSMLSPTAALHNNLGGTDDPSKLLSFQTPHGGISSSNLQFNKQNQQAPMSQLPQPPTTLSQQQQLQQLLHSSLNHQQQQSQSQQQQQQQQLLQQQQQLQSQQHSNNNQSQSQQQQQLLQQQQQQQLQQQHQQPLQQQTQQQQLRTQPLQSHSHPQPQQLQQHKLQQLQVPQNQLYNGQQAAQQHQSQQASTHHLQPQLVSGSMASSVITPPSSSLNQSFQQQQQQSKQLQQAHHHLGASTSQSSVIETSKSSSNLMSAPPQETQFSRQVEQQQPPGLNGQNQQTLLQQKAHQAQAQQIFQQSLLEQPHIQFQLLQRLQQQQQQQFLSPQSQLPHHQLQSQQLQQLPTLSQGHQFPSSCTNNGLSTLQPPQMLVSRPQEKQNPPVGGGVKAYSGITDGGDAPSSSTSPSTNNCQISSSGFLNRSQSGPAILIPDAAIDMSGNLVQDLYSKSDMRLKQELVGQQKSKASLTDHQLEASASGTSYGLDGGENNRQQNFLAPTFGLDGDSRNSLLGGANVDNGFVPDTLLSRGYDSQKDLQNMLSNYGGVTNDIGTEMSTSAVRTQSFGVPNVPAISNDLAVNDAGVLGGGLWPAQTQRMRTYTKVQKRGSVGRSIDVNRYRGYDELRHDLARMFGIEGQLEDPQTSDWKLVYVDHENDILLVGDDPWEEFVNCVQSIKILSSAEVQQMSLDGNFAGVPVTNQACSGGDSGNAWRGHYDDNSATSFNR

Sample 1 — Sequence: B1 (IAA26); method: two-hybrid; reference: out of 4 tests; reading: higher = firmer interaction
B1: IAA26 (Arabidopsis thaliana, UniProt Q8LAL2); chain MEGCPRNREIGPKLLDLIPQGRKWYQEDKNNTDQEKKLELRLGPPGGDEEDHSAIKKKNTEIRNIKKETEDKSFHCFNGNHFSPSNKTTSVPHISQKRTAPGPVVGWPPVRSFRKNLASTSSSKLGNESSHGGQINKSDDGEKQVETKKEGMFVKINMDGVPIGRKVDLNAYNSYEQLSFVVDKLFRGLLAAQRDISDGQGEEKPIIGLLDGKGEFTLTYEDNEGDKMLVGDVPWQMFVSSVKRLRVIKSSEISSALTFGCSKQEKMMH
| partner | positive tests |
| --- | --- |
| ARF7 1030-1164 (Arabidopsis thaliana, UniProt P93022) | 1 |
| IAA32 (Arabidopsis thaliana, UniProt Q8RYC6) | 1 |
| ARF8 699-811 (Arabidopsis thaliana, UniProt Q9FGV1) | 1 |
| ARF1 538-665 (Arabidopsis thaliana, UniProt Q8L7G0) | 0 |

Sample 2 — method: RNA Bind-n-Seq; form: RNA; matrix: in vitro; concentration: not given; reference: input RNA pool; reading: higher = stronger binding
Target: RING finger protein unkempt homolog, zinc fingers 1-6, GST-SBP tag (UNK, Homo sapiens, UniProt Q9C0B0, residues 30-357)
Sequence of UniProt Q9C0B0 (30-357, looked up): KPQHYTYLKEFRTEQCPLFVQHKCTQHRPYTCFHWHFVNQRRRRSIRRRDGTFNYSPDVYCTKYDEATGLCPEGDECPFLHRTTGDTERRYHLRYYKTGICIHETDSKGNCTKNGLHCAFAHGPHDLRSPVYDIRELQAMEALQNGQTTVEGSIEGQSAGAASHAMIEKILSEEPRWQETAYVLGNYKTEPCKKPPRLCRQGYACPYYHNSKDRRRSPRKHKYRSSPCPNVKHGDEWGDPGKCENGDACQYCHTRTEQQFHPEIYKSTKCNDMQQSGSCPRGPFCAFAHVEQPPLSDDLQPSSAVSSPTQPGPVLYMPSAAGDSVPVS
Notes: RNA with constant flanks, human-mouse chimeric sites, ends assumed
Shared flanks, not repeated: GGGAGUUCUACAGUCCGACGAUC … CAACAGAGGAUUGAGCAUCA
| Oligonucleotide | bound/input enrichment [ratio] |
| --- | --- |
| CUCAGAGAUGUGGCAUAUCAAUAUGUGAAAAAGGGGGCUCGUAUAUUUGUGGAAGGGAAAGUGGACUAUGGUGAAUACAUGGAUAAAAACAAUGUGAGGCGGCAAGCAACAACAAUCAUA | 0.385 |
| UCUUAACUUAUUCAUUUAACUUAUUUUUAGCACUUAGUAAAUAUUGUUAGUCUUAGACAAUAGCUCACAUUUUUUGAGAAGCAUGCCCUCCCUAUCCAUUUGUCUUAUAACAUGACCCAG | 263 |
| GAUCAUGGAACCAGAAUAGAAAUGAAGAUGAGAUUACCCAGACGAGCCAAAACAGCUGCGCUACAGAAAAGUAAACUUUAACCUUGCGAGUUCCUUAAUGAAGAUACAAGUUAAGAGAGC | 0.521 |
| CACGUGUCUGCAGUACUUGAUGUGGACUACUCUCCCACUGGGAAGGAAUUUGUGUCUGCUAGUUUCGAUAAGUCUAUUAGAAUCUUUCCUGUGGACAAGAGCCGAAGCAGGGAAGUGUAU | 1.57 |
| GCCACCAAUUCCAGCCAACAUGACCCUUGCUGCCUACAAGGAGAAGAUGAAGGAGCUCCCGCUGGUGUCCUUGUUCUGCUCCUGCUUCCUGGCCGAUCCCCUGAAUAAGUCGUCCUACAA | 0.227 |
| CCUCUGCCCCGCUCUGCAGCCUGGGGACACUGGGCUGCAUUUUUUUUCCAGCUUUCUUUUAAAACUCUCAGUGUAACUGUAUCCCGUGACAUUUCAUUUUUUUUAAAUAGUGUAUUUUUU | 6.12 |
| UGGCGCCUGCGCUCCCCACUCGUGUUUUUAAGUGUAUUUUUAUAAGACAUGUGUAUUUACAAUUGAGCUUUUGUUACAUAAUGCUGAAAUGCUACUGCAAUAUUAUGAAAAUGUUUCAAU | 0.13 |
| CUGGCACUCUAUCAGAUAUAUUAAUUUUUUAAUGUAGAUGUAAUUUUAAAAAUGAAUGGCUACUUUACACGUUUAACUAGGCUCUUACUACAUAUGUGUACAUAUGUAUAUAUAUAUAUA | 5.17 |

Sample 3 — target: CCND2, cyclin fold, Cln2 fusion (human); method: yeast growth competition, sequencing; matrix: yeast; notes: weak parent motif; reference: not given; reading: higher = stronger binding
Starting sequence: SCAPER docking peptide (human); SNARRSLNFGGST
| Variant | normalised enrichment score |
| --- | --- |
| SNMRRSLNFGGST [A3M] | 0.5 |
| SNARRSLNFGGMT [S12M] | -0.0726 |
| SNARRSLNFGGSD [T13D] | 0.773 |
| SNARRSNNFGGST [L7N] | -0.155 |
| HNARRSLNFGGST [S1H] | 0.192 |
| SNARWSLNFGGST [R5W] | 0.325 |
| SNARISLNFGGST [R5I] | 0.535 |
| SNARRVLNFGGST [S6V] | 0.908 |
| SNQRRSLNFGGST [A3Q] | -0.491 |
| SNARRSLNFWGST [G10W] | 0.377 |
| SNARRMLNFGGST [S6M] | 1 |
| SNARRSLNFGGSF [T13F] | 0.369 |
| SNARRSINFGGST [L7I] | 0.501 |
| SNARRRLNFGGST [S6R] | 0.929 |
| SNVRRSLNFGGST [A3V] | 0.0339 |
| SNARRSLNFHGST [G10H] | 0.319 |
| SNARRSLNFYGST [G10Y] | 0.375 |

Sample 4 — target: UBE2M UBC core domain (UniProt P61081); method: yeast two-hybrid; matrix: yeast; notes: mostly zero background; reference: not given; reading: higher = stronger interaction
B2: RNF150 RING domain (UniProt Q9ULK6); chain DKETESDFDNCAVCIEGYKPNDVVRILPCRHLFHKSCVDPWLLDHRTCPMCKMNILKALGIP
B3: RNF5 RING domain (UniProt Q99942); chain ERGGAGATFECNICLETAREAVVSVCGHLYCWPCLHQWLETRPERQECPVCKAGISREKVVP
B4: ANKIB1 RING domain (UniProt Q9P2G1); chain LSPGDLDTSLCDICMCSISVFEDPVDMPCGHDFCRGCWESFLNLKIQEGEAHNIFCPAYDCFQLVPVDIIE
B5: RNF4 RING domain (UniProt P78317); chain TGLRPSGTVSCPICMDGYSEIVQNGRLIVSTECGHVFCSQCLRDSLKNANTCPTCRKKINHKRYHP
B6: PEX2 RING domain (UniProt P28328); chain DNTLATSGKECALCGEWPTMPHTIGCEHIFCYFCAKSSFLFDVYFTCPKCGTEVHSLQPLK
B7: TRIM35 RING domain (UniProt Q9UPQ4); chain PSRSFKEELLCAVCYDPFRDAVTLRCGHNFCRGCVSRCWEVQVSPTCPVCKDRASPADLRT
B8: TRIM10 RING domain (UniProt Q9UDY6); chain SVTSLADEVNCPICQGTLREPVTIDCGHNFCRACLTRYCEIPGPDLEESPTCPLCKEPFRPGSFRP
B9: TRIM3 RING domain (UniProt O75382); chain VQPMDKQFLVCSICLDRYQCPKVLPCLHTFCERCLQNYIPAQSLTLSCPVCRQTSILPEQGV
Construct (chain): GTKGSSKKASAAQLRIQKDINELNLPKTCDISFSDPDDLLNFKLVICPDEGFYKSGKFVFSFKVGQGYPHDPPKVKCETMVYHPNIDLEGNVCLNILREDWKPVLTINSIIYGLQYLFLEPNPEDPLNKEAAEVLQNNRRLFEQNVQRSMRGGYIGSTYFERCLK
| Sequence | lacZ reporter activity |
| --- | --- |
| B2 (RNF150 RING domain) | 0 |
| B3 (RNF5 RING domain) | 0 |
| B4 (ANKIB1 RING domain) | 0 |
| B5 (RNF4 RING domain) | 0 |
| B6 (PEX2 RING domain) | 0 |
| B7 (TRIM35 RING domain) | 0 |
| B8 (TRIM10 RING domain) | 0 |
| MANWVFCNRCFQPPHRTSCFSLTNCGHVYCDACLGKGKKNECLICKAPCRTVLLSK (RNF212 RING domain (UniProt Q495C1)) | 0 |
| SYEDKSNDFVCPICFDMIEEAYMTKCGHSFCYKCIHQSLEDNNRCPKCNYVVDNIDHLY (COP1 RING domain (UniProt Q8NHY2)) | 0 |
| B9 (TRIM3 RING domain) | 0 |
| ISNDSETLEECMVCSDMKRDTLFGPCGHIATCSLCSPRVKKCLICKEQVQSRTKIE (MIB1 RING domain (UniProt Q86YT6)) | 0 |
| QLQDEEDDSLCRICMDAVIDCVLLECGHMVTCTKCGKRMSECPICRQYVVRAVHVF (RNF34 RING domain (UniProt Q969K3)) | 0 |
| FLKKLEQSFMCVCCQELVYQPVTTECFHNVCKDCLQRSFKAQVFSCPACRHDLGQNYIMI (UHRF2 RING domain (UniProt Q96PU4)) | 0 |

For quick reference, copied from above (sample 4):
| Sequence | lacZ reporter activity |
| --- | --- |
| MANWVFCNRCFQPPHRTSCFSLTNCGHVYCDACLGKGKKNECLICKAPCRTVLLSK (RNF212 RING domain (UniProt Q495C1)) | 0 |
| SYEDKSNDFVCPICFDMIEEAYMTKCGHSFCYKCIHQSLEDNNRCPKCNYVVDNIDHLY (COP1 RING domain (UniProt Q8NHY2)) | 0 |
| B9 (TRIM3 RING domain) | 0 |
| ISNDSETLEECMVCSDMKRDTLFGPCGHIATCSLCSPRVKKCLICKEQVQSRTKIE (MIB1 RING domain (UniProt Q86YT6)) | 0 |
| QLQDEEDDSLCRICMDAVIDCVLLECGHMVTCTKCGKRMSECPICRQYVVRAVHVF (RNF34 RING domain (UniProt Q969K3)) | 0 |
| FLKKLEQSFMCVCCQELVYQPVTTECFHNVCKDCLQRSFKAQVFSCPACRHDLGQNYIMI (UHRF2 RING domain (UniProt Q96PU4)) | 0 |
